# Measurements gathered from unrelated publications.
# A part holds a random share of what one study measured. Changes are numbered by the printed parent chain.
# UniProt P16234, sequence (whole entry, looked up): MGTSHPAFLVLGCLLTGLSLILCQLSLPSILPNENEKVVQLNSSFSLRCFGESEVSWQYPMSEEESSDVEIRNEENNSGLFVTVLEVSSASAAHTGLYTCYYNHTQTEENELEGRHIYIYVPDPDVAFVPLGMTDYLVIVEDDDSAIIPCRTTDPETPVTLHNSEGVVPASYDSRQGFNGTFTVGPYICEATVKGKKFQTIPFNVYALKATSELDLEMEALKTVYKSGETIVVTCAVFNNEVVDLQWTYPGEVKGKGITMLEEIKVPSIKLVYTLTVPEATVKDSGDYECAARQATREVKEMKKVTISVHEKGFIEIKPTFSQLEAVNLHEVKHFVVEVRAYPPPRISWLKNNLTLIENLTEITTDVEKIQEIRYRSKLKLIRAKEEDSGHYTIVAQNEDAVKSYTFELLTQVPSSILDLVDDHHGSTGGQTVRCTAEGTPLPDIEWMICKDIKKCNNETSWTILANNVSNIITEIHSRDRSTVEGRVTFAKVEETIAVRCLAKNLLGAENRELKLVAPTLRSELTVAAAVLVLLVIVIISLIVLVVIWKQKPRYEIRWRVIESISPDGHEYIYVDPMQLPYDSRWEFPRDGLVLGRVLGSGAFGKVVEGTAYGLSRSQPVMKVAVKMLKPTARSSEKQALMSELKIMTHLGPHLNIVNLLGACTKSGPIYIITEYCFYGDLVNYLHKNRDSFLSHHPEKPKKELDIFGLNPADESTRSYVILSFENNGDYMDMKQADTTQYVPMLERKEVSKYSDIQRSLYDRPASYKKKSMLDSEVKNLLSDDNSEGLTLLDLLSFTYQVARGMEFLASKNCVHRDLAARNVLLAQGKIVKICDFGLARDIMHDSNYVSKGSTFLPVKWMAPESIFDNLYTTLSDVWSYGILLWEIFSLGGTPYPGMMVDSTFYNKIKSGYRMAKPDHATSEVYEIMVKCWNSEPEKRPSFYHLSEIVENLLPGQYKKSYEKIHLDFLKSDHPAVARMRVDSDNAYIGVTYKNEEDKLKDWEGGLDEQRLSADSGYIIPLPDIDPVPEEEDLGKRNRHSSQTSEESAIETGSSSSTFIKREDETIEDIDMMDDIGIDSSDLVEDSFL
# UniProt Q15759, sequence (whole entry, looked up): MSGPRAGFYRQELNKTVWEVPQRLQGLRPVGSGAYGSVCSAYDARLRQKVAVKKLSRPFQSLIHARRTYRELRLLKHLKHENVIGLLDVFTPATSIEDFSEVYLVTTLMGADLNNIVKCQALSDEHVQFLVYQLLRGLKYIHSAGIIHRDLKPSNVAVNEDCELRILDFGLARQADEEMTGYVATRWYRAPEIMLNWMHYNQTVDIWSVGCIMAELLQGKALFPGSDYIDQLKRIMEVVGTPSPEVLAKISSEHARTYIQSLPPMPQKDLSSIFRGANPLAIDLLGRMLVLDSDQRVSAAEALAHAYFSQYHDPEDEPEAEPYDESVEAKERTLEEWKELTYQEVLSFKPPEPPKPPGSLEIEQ
# UniProt P42684, sequence (whole entry, looked up): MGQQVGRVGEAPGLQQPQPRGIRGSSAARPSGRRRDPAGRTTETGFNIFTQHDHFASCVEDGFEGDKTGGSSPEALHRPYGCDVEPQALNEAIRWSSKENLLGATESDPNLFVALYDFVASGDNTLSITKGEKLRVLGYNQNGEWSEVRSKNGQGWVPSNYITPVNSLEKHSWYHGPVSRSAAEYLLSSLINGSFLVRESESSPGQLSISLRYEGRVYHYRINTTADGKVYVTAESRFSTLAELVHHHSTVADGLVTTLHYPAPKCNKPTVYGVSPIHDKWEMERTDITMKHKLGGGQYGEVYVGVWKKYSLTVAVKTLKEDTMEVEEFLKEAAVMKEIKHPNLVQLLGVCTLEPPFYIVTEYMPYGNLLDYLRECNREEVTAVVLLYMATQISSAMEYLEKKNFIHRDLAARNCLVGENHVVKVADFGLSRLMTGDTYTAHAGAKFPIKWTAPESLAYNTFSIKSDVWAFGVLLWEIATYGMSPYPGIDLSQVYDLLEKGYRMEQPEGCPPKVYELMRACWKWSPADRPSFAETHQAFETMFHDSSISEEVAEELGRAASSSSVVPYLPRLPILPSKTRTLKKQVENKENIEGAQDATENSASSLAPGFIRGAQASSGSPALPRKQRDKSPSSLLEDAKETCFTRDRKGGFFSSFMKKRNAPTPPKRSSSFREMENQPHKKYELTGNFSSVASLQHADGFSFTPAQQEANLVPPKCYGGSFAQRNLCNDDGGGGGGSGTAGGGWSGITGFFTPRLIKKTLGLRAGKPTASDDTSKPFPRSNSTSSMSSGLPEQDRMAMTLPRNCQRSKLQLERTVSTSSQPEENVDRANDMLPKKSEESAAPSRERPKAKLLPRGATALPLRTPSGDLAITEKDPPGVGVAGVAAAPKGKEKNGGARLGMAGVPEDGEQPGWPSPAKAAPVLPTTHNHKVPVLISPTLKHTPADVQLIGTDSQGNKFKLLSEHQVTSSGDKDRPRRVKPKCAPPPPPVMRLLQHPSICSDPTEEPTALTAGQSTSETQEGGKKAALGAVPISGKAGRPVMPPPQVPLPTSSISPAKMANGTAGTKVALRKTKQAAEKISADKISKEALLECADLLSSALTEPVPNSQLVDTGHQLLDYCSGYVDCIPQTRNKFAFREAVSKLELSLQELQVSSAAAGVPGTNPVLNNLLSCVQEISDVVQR
# UniProt Q6ZWH5, sequence (whole entry, looked up): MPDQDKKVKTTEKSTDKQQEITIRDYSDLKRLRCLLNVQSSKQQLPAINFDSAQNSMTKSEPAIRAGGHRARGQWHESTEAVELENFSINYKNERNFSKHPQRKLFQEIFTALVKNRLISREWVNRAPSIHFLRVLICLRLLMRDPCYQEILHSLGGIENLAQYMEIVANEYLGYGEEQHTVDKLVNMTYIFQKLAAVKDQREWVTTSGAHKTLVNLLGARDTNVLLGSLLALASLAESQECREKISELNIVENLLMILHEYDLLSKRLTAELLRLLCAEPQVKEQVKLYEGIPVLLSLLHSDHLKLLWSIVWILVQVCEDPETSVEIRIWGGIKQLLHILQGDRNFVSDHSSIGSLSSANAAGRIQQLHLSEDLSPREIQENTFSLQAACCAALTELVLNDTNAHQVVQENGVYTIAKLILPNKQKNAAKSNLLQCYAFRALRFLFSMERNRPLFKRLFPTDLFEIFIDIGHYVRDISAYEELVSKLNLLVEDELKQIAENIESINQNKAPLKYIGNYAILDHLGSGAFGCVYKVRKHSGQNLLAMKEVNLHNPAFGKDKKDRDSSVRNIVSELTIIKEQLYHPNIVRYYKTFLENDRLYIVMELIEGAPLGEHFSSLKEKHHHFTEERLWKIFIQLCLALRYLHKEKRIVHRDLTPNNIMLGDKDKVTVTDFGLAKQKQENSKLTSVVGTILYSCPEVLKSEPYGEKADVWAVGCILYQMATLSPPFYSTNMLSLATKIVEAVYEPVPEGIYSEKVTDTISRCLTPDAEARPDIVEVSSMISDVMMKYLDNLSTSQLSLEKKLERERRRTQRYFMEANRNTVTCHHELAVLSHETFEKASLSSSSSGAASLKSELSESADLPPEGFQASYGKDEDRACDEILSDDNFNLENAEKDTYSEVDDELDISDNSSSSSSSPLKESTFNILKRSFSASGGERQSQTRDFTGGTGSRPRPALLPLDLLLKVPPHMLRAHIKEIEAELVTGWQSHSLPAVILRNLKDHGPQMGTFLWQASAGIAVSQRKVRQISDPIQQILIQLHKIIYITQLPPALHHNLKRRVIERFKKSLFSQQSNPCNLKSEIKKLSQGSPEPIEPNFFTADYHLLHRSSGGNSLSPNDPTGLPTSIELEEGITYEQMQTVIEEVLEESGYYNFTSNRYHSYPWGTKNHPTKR

# Set 1
# Target: Histone acetyltransferase KAT6A, winged helix 1, GST fusion (KAT6A, Homo sapiens, UniProt Q92794, residues 1-85)
# Method: protein binding microarray
# Molecule type: double-stranded DNA, one strand shown
# Medium: in vitro
# Tested at: not given
# Setting: 8-mer, flanks averaged, mean of 2 arrays, mostly near background
# Baseline: not given
# Reading: higher = stronger binding
# Construct (chain): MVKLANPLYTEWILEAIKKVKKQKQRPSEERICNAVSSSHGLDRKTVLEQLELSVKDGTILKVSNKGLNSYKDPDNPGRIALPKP
Sequence,E-score
ACCTCGAC,-0.155
CCCACAGG,-0.194
GCGCTGAA,0.237
AAACCAAG,-0.213
CATCGCAC,0.0365
ATCCTAAT,-0.098
GGGCACCC,0.2
CTTGGCAA,-0.255

# Set 2
# Target: CCND3, cyclin fold, Cln2 fusion (human)
# Method: yeast growth competition, sequencing
# Medium: yeast
# Setting: weak parent motif
# Baseline: not given
# Reading: higher = stronger binding
# Starting sequence: CDC25A docking peptide (human); PPHRRRLLFACSP; partner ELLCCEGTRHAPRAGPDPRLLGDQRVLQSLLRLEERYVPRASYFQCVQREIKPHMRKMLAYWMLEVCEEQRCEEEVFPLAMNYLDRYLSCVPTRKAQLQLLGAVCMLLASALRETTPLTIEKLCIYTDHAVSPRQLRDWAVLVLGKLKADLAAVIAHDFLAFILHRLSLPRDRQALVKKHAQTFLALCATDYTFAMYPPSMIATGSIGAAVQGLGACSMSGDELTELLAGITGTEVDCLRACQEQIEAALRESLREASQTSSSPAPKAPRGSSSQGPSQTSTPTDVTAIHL
Substitution,normalised enrichment score
PPMRRRLLFACSP [H3M],0.145
PPHRLRLLFACSP [R5L],0.198
PPHRRRILFACSP [L7I],0.179
PPHRRRLLWACSP [F9W],0.0942
PPHRRRLGFACSP [L8G],0.151
PPSRRRLLFACSP [H3S],0.161
PPHSRRLLFACSP [R4S],0.00134
PQHRRRLLFACSP [P2Q],0.215

# Set 3
# SMILES: CS(=O)(=O)N1CCCC(NC(=O)[C@H](CCC2CCCCC2)NC(=O)c2ccc(CNc3ncnc4c3nnn4-c3ccccc3)cc2)C1 (stereo partly shown)
# Observed: cell-free assay
# Method: competition with immobilised ligand
# Tested at: 0.1 µM
target,remaining binding [%]
"Epidermal growth factor receptor (EGFR, Homo sapiens, UniProt P00533, G719S)",72
"Tyrosine-protein kinase ABL2 (ABL2, Homo sapiens, UniProt P42684)",100
"Mitogen-activated protein kinase 11 (MAPK11, Homo sapiens, UniProt Q15759)",100
"Platelet-derived growth factor receptor alpha (PDGFRA, Homo sapiens, UniProt P16234)",91
"Leucine-rich repeat serine/threonine-protein kinase 2 (LRRK2, Homo sapiens, UniProt Q5S007)",51
"Serine/threonine-protein kinase Nek10 (NEK10, Homo sapiens, UniProt Q6ZWH5)",100

# Set 4
# Target: Mitogen-activated protein kinase 10 (MAPK10, Homo sapiens, UniProt P53779)
# UniProt P53779, sequence (whole entry, looked up): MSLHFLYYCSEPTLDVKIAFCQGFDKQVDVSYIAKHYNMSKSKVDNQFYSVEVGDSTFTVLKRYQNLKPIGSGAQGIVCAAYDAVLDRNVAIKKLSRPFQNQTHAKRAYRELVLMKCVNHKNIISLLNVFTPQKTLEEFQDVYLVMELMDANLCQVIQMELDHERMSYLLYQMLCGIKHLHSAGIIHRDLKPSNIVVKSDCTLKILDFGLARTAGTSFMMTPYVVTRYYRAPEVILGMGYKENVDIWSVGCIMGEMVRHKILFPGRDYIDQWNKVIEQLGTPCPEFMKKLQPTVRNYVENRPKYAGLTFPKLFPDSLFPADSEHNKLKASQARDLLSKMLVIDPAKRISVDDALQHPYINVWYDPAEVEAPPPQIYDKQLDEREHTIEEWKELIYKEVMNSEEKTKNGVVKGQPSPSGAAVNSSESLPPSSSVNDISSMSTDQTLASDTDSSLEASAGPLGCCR
# Observed: enzyme activity
# Mode: inhibitor
# Tested at: 0.5 µM
# Baseline: control
Structure (SMILES),remaining activity [%]
CCCCc1c(-c2ccc(O)cc2)[nH]c2nccnc12,100
O=C1Nc2ccccc2/C1=C\c1c(Cl)[nH]c2ccccc12,103
O=Nc1c(-c2c(O)[nH]c3cc(Br)ccc23)[nH]c2ccccc12,97.9
CCCNC(=O)Nc1ccc(Oc2ncnc3cc(OC)c(OC)cc23)cc1Cl,100
CCN(CC)CCCCN1c2ccccc2Oc2ccc(Cl)cc21,104
O=C1Nc2ccc(Br)cc2/C1=C/c1cc2c([nH]1)CCCC2,98.7
O=C1NC(=O)c2c1c1c3ccccc3[nH]c1n1cncc21,96
O=C1c2ccccc2-c2nc3nnnn3nc21,55
Oc1cccc(-c2nc(N3CCOCC3)c3oc4ncccc4c3n2)c1,102
C[C@@H](N)[C@H]1CC[C@H](C(=O)Nc2ccncc2)CC1,102
O=c1cc(N2CCOCC2)oc2c(-c3ccccc3)cccc12,87.1
c1ccc2c(-c3ccncc3)c[nH]c2c1,102
O=Nc1c(-c2c(O)[nH]c3ccccc23)[nH]c2ccccc12,96.4
N#C/C(=C(/N)SC1C=CC=CC1)c1cccc(C(O)c2ccncc2)c1 (stereo not shown),94.2
N#Cc1cnc2cnc(NCc3cccnc3)cc2c1Nc1ccc(F)c(Cl)c1,95
NC(=O)c1ccc(-c2nc(-c3ccc4c(c3)OCCO4)c(-c3ccccn3)[nH]2)cc1,99.9
FC(F)(F)c1ccc(/C=C/c2nc(COc3ccc(CCCCn4ccnn4)cc3)co2)cc1,94.6
COc1cccc(-c2cc(=O)c3ccccc3o2)c1N,85.7

# Repeated from above (set 4):
Structure (SMILES),remaining activity [%]
N#C/C(=C(/N)SC1C=CC=CC1)c1cccc(C(O)c2ccncc2)c1 (stereo not shown),94.2
N#Cc1cnc2cnc(NCc3cccnc3)cc2c1Nc1ccc(F)c(Cl)c1,95
NC(=O)c1ccc(-c2nc(-c3ccc4c(c3)OCCO4)c(-c3ccccn3)[nH]2)cc1,99.9
FC(F)(F)c1ccc(/C=C/c2nc(COc3ccc(CCCCn4ccnn4)cc3)co2)cc1,94.6
COc1cccc(-c2cc(=O)c3ccccc3o2)c1N,85.7
